Published values collected from several papers.
Each numbered part is a random draw from the data of one study; scales do not carry over between parts.
Chain of UniProt P31751 (whole entry, looked up): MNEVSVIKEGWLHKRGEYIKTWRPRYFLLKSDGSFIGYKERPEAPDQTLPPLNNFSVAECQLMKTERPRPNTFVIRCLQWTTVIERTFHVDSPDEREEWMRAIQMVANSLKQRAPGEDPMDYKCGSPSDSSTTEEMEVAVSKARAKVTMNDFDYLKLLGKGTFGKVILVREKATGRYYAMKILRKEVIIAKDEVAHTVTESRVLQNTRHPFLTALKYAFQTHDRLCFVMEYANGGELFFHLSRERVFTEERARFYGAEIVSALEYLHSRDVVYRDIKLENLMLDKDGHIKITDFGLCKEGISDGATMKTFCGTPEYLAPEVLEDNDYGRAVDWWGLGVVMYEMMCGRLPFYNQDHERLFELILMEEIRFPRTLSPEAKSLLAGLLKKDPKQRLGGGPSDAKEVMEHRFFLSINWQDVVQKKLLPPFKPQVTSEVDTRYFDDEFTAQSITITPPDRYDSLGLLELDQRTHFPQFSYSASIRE
Chain of UniProt P31152 (whole entry, looked up): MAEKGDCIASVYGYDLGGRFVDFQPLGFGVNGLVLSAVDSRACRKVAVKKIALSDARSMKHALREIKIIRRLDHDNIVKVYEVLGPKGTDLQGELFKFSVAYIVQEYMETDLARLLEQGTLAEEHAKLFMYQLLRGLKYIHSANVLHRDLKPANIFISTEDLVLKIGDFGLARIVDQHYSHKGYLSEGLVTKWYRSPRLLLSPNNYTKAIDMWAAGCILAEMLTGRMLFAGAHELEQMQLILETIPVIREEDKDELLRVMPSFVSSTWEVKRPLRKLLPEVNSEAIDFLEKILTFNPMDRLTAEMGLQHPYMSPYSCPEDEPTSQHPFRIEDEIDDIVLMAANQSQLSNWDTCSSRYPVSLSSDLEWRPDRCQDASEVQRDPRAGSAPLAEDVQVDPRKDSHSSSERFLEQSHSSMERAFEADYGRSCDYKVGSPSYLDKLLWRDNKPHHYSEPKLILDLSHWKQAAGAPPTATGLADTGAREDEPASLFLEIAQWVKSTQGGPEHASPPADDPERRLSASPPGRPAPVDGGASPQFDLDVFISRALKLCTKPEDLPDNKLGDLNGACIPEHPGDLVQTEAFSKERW
Chain of UniProt Q9HAZ1 (whole entry, looked up): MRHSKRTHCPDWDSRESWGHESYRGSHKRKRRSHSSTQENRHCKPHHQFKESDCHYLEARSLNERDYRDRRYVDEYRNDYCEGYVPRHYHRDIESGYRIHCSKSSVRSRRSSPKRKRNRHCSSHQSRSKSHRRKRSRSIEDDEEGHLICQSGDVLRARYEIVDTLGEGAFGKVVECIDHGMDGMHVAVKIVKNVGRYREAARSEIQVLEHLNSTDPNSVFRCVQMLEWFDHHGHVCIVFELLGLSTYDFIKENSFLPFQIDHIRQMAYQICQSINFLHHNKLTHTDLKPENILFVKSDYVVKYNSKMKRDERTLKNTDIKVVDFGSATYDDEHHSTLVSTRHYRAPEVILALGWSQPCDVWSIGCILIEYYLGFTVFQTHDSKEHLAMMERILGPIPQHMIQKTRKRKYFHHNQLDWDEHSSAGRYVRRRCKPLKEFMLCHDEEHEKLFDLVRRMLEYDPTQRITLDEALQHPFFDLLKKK
Chain of UniProt Q9BRS2 (whole entry, looked up): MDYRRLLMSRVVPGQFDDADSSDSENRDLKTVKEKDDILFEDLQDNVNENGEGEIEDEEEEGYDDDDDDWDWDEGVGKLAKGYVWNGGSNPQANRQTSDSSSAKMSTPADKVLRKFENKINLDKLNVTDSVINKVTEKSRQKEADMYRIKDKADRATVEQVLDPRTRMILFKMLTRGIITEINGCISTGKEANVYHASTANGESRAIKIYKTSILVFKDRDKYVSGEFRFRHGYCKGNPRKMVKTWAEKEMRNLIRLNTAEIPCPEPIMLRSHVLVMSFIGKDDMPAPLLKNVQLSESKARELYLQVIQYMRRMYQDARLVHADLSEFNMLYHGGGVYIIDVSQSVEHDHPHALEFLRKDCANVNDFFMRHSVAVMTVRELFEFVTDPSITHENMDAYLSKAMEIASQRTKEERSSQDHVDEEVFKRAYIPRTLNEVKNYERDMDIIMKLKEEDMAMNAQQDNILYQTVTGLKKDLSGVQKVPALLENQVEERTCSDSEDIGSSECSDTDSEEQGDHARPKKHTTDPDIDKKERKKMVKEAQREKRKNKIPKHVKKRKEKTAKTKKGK
Chain of UniProt Q15303 (whole entry, looked up): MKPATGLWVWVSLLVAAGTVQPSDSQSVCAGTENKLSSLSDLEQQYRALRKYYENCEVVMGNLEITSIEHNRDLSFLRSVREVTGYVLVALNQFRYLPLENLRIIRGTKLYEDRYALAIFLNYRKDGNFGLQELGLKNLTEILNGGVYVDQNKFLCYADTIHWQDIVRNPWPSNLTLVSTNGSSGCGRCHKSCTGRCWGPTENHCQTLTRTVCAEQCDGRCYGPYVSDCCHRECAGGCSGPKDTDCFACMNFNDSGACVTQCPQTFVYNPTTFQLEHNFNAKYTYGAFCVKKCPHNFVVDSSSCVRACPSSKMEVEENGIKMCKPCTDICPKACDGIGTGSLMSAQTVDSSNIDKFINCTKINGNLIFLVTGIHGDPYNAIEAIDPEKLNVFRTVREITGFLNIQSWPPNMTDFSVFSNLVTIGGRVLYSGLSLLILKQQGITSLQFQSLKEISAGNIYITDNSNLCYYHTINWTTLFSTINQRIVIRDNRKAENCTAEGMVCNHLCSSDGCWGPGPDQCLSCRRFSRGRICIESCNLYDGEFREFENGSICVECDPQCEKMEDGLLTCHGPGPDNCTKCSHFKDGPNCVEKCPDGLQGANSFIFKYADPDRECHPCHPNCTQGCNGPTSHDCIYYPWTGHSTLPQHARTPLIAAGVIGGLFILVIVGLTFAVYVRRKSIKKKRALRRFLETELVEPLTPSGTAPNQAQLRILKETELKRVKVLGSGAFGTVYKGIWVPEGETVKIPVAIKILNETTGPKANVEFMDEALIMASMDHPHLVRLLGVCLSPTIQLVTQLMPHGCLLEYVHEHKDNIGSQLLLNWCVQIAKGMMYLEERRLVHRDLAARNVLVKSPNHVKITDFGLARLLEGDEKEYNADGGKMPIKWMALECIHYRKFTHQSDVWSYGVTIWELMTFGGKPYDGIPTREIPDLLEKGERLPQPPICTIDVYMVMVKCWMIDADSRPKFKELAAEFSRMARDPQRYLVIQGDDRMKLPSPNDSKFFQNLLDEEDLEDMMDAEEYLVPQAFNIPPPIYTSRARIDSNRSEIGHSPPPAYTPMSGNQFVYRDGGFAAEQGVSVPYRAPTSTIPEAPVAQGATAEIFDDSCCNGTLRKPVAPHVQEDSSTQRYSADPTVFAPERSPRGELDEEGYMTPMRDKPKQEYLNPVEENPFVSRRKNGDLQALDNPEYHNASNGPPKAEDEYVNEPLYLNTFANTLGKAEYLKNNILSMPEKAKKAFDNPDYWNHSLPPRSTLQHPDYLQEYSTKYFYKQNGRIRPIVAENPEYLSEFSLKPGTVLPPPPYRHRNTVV

Study 1
Target: Beta-1 adrenergic receptor (ADRB1, Homo sapiens, UniProt P08588)
Chain of UniProt P08588 (whole entry, looked up): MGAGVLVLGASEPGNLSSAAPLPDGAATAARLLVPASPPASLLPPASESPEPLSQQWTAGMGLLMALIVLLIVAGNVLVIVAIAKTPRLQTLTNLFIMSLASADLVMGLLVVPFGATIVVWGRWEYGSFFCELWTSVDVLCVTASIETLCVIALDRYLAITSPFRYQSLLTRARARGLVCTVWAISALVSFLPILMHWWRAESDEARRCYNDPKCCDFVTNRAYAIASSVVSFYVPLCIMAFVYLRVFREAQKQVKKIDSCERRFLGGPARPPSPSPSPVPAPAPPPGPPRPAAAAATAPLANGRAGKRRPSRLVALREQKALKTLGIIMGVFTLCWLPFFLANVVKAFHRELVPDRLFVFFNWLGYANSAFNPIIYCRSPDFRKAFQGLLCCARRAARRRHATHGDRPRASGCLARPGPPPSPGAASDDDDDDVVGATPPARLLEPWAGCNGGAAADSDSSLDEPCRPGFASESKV
Action: agonist
`Cc1noc2c(-c3cnn(C)c3)cc(-c3cccnc3)nc12` gave an EC50 of ≥ 100 µM.
For `Cc1noc2c(-c3cccnc3NCc3cnccn3)cc(-c3ccccc3)nc12`, the EC50 was ≥ 100 µM.
For `COc1ccccc1OCCNCC(O)CCOc1cccc2[nH]c3ccccc3c12` (stereo not drawn), the EC50 was ≥ 100 µM.
For `c1cc(N2CCOCC2)ccc1-c1cc(-c2cn[nH]c2)c2cncn2c1`, the EC50 was ≥ 100 µM.
The EC50 of `O=c1cc(N2CCNCC2)nc2sc3ccc4ccccc4c3n12` is reported as ≥ 100 µM.
For `COc1ccc2c(O[C@H]3CC4C(=O)N(C)CCCCC=C[C@@H]5C[C@@]5(C(=O)N[S+](=O)([O-])C5CC5)NC(=O)[C@@H]4C3)cc(-c3nc(C(C)C)cs3)nc2c1C` (stereo partly drawn), the EC50 was ≥ 100 µM.
With `C=CCNC(=O)[C@@H]1Cc2cn(CC#CC)c3cccc(c23)[C@H](CC(C)C)N1` the EC50 was ≥ 100 µM.
`CC1=CCN(Cc2ccc(OCC(O)CN3CCN(C)CC3)cc2)CC1` (stereo not drawn) has an EC50 of ≥ 100 µM.
The EC50 of `CN(C)c1ccc(Nc2ncnc3sc4c(c23)CCCC4)cc1` is reported as ≥ 100 µM.

Study 2
Cell line: A-375
Tested at: 100 µM
Time: 36 h
`C[C@H]1C[C@H]2[C@@H]3CCC4=CC(=O)C=C[C@]4(C)[C@@]3(F)[C@@H](O)C[C@]2(C)[C@@]1(O)C(=O)CO` gave a viability of 90.4%.
The viability of `O=c1oc2ccccc2c(O)c1Cc1c(O)c2ccccc2oc1=O` is reported as 32.9%.
The viability of `NC(=O)NS(=O)(=O)c1ccc(N)cc1` is reported as 106%.
The viability of `COc1cc(CCC(=O)O)ccc1O` is reported as 109%.
`CS(=O)(=O)c1ccc(C2=C(c3ccccc3)C(=O)OC2)cc1` gave a viability of 114%.
`CN(C)CCn1nnnc1SCC1=C(C(=O)O)N2C(=O)[C@@H](NC(=O)Cc3csc(N)n3)[C@H]2SC1` gave a viability of 115%.
The viability of `C[C@@H]1[C@H](O)[C@@H](C)/C=C/C=C/C=C/C=C/C=C/C=C/C=C/[C@H](O[C@@H]2O[C@H](C)[C@@H](O)[C@H](N)[C@@H]2O)C[C@@H]2O[C@](O)(C[C@@H](O)C[C@@H](O)[C@H](O)CC[C@@H](O)C[C@@H](O)CC(=O)O[C@H]1C)C[C@H](O)[C@H]2C(=O)O` is reported as 102%.
With `O=C(Nc1ccc(O)cc1)c1ccccc1O` the viability was 91.9%.

Study 3
SMILES: C[C@@H](c1cccc(C#N)c1)n1cc(Cl)cc(C(N)=O)c1=N
Method: competition with immobilised ligand
Tested at: 1 µM
For Mitogen-activated protein kinase 4 (MAPK4, Homo sapiens, UniProt P31152); cell-free assay: remaining binding read 90%.
SRSF protein kinase 1 (SRPK1, Homo sapiens, UniProt Q96SB4); cell-free assay — remaining binding: 100%.
Hepatocyte growth factor receptor (MET, Homo sapiens, UniProt P08581, Y1235D); cell-free assay — remaining binding: 100%.
For Tyrosine-protein kinase HCK (HCK, Homo sapiens, UniProt P08631); cell-free assay: remaining binding read 91%.
The remaining binding was 98% (Serine/threonine-protein kinase WNK4 (WNK4, Homo sapiens, UniProt Q96J92); cell-free assay).
For Receptor tyrosine-protein kinase erbB-4 (ERBB4, Homo sapiens, UniProt Q15303); cell-free assay: remaining binding read 100%.
Ephrin type-B receptor 1 (EPHB1, Homo sapiens, UniProt P54762); cell-free assay — remaining binding: 94%.
Serine/threonine-protein kinase Nek9 (NEK9, Homo sapiens, UniProt Q8TD19); cell-free assay — remaining binding: 97%.
The remaining binding was 100% (Casein kinase I isoform epsilon (CSNK1E, Homo sapiens, UniProt P49674); cell-free assay).
For Cyclin-dependent kinase-like 2 (CDKL2, Homo sapiens, UniProt Q92772); binding: remaining binding read 100%.
For Serine/threonine-protein kinase RIO1 (RIOK1, Homo sapiens, UniProt Q9BRS2); cell-free assay: remaining binding read 86%.
The remaining binding was 93% (RAC-beta serine/threonine-protein kinase (AKT2, Homo sapiens, UniProt P31751); cell-free assay).
It gave 100% for remaining binding (Dual specificity protein kinase CLK4 (CLK4, Homo sapiens, UniProt Q9HAZ1); cell-free assay).
The remaining binding was 79% (Peripheral plasma membrane protein CASK (CASK, Homo sapiens, UniProt O14936); cell-free assay).
Serine/threonine-protein kinase MRCK alpha (CDC42BPA, Homo sapiens, UniProt Q5VT25); cell-free assay — remaining binding: 100%.

Study 4
Target: Fibroblast growth factor receptor 2 (FGFR2, Homo sapiens, UniProt P21802)
Chain of UniProt P21802 (whole entry, looked up): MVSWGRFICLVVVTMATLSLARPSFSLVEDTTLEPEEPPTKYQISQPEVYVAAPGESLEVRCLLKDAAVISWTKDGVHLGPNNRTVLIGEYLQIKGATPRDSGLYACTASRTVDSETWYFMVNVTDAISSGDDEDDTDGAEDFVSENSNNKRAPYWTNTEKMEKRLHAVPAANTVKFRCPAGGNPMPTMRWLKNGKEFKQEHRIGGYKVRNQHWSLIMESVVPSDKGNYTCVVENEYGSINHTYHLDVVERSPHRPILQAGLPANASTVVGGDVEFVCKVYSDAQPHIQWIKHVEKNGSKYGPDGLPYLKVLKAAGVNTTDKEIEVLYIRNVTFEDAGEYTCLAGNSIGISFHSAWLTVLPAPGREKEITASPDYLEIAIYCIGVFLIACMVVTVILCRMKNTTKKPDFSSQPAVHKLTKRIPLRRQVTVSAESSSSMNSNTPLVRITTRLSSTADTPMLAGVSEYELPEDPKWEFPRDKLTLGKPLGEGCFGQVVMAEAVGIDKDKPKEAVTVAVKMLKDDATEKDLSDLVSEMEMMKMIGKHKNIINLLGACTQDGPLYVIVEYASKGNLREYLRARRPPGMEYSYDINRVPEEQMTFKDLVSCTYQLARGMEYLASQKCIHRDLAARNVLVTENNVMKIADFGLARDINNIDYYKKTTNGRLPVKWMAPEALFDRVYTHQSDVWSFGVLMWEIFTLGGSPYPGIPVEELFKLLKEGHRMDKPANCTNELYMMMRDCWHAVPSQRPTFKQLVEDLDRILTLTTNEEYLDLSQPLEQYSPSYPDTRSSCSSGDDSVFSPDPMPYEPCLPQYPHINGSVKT
Observed: enzyme activity
Action: inhibitor
Tested at: 0.5 µM
Reference: control
`Clc1ccc(Nc2nnc(Cc3ccncc3)c3ccccc23)cc1` has a remaining activity of 96%.
For `NC(=O)c1ccc(-c2nc(-c3ccc4c(c3)OCCO4)c(-c3ccccn3)[nH]2)cc1`, the remaining activity was 99.4%.
With `CCN(CC)CCCCN1c2ccccc2Oc2ccc(Cl)cc21` the remaining activity was 95.7%.
For `CNc1cc2c(Nc3cccc(Br)c3)ncnc2cn1`, the remaining activity was 96.3%.
`O=c1c(-c2ccc(F)cc2)c(-c2ccncc2)[nH]n1-c1ccc(Cl)cc1` has a remaining activity of 94%.
The remaining activity of `CC(C)(C)c1nc2c3cc[nH]c(=O)c3c3cc(F)ccc3c2[nH]1` is reported as 99.1%.
For `CCCCc1c(-c2ccc(O)cc2)[nH]c2nccnc12`, the remaining activity was 94.5%.
The remaining activity of `CC(C)N(CCC(=O)c1ccc2ccccc2c1)Cc1ccccc1` is reported as 107%.
For `Nc1nc(Nc2ccc(S(N)(=O)=O)cc2)nn1C(=S)Nc1c(F)cccc1F`, the remaining activity was 7.43%.
With `O=C1c2ccccc2-c2nc3nnnn3nc21` the remaining activity was 59.4%.
The remaining activity of `NC(=O)c1cccc(-c2cc(Nc3ccc(OC(F)(F)F)cc3)ncn2)c1` is reported as 95.9%.
`O=C(O)/C=C/c1cc(Br)c(Br)c(Br)c1Br` gave a remaining activity of 99.5%.
The remaining activity of `FC(F)(F)c1ccc(/C=C/c2nc(COc3ccc(CCCCn4ccnn4)cc3)co2)cc1` is reported as 96.7%.

Repeated from above (study 4):
For `CNc1cc2c(Nc3cccc(Br)c3)ncnc2cn1`, the remaining activity was 96.3%.
`O=c1c(-c2ccc(F)cc2)c(-c2ccncc2)[nH]n1-c1ccc(Cl)cc1` has a remaining activity of 94%.
The remaining activity of `CC(C)(C)c1nc2c3cc[nH]c(=O)c3c3cc(F)ccc3c2[nH]1` is reported as 99.1%.
For `CCCCc1c(-c2ccc(O)cc2)[nH]c2nccnc12`, the remaining activity was 94.5%.
The remaining activity of `CC(C)N(CCC(=O)c1ccc2ccccc2c1)Cc1ccccc1` is reported as 107%.
